Assay results collected from several papers.
Lines come from different studies, so protocols differ. ± marks the error that the study gave.

COC(=O)[C@@H]1[C@H]2CC[C@@H](C[C@@H]1O)N2C
AUC(0-t) (LC-MS/MS; Sprague-Dawley rat, whole blood; intraperitoneal, 20 mg/kg of cocaine, up to 180 min): 0.283 ± 0.0143 µg·h/mL

CC(=O)c1c([O-])cc(C)oc1=O.[Na+]
AUC(0-t) (Wistar rat, male, serum; oral, 200 mg/kg, no CYP inhibitor): 2790 ± 132 µg·h/mL

COC(=O)[C@H]1[C@@H](OC(=O)c2ccccc2)C[C@@H]2CC[C@H]1N2
AUC(0-t) (LC-MS/MS; Sprague-Dawley rat, whole blood; intraperitoneal, 20 mg/kg of cocaine, up to 180 min): 0.108 ± 0.00667 µg·h/mL

C#Cc1ccc2c(c1)C(c1ccccn1)=NCc1c(-c3cnco3)ncn1-2
AUC(0-t) (Sprague Dawley rat, brain; oral, 2 mg/kg, 0 to 24 h, cassette dosing): 2.34 µg·h/mL

C=CC[N+]1([C@H]2C[C@H]3[C@@H]4CC[C@H]5C[C@H](O)[C@@H](N6CCOCC6)C[C@]5(C)[C@H]4CC[C@]3(C)[C@H]2OC(C)=O)CCCC1
AUC(0-t) (Sprague Dawley rat, plasma; intravenous, dose not given, added: sugammadex 5 mg/kg IV): 0.0397 µg·h/mL

CC(C)[C@@H](CN1CC[C@@](C)(c2cccc(O)c2)[C@@H](C)C1)NC(=O)[C@@H]1Cc2ccc(O)cc2CN1C
AUC(0-t) (rat, brain; ip, 5 mg/kg, to 168 h): 325 ng·h/g

Cl.Cn1c(=O)n(CCCCN2CCC3(CC2)OCc2ccccc23)c2ccccc21
AUC(0-t) (rat, male, brain; iv, 10 mg/kg, up to 24 h): 3040 ± 267 ng·h/g

CCC[C@@](N)(CO)CCc1ccc(OCCCCCC(C)C)cc1
AUC(0-t) (male Sprague-Dawley rat, plasma; intravenous, dose not given): 1.77 µM·h

Cc1ccc(S(=O)(=O)Nc2c(N[C@H]3CC[C@H](NC(=O)Nc4ccc(F)c(Cl)c4)CC3)c(=O)c2=O)cc1
AUC(0-t) (rat, plasma; oral, 20 mg/kg): 0.23 µM·h

Cc1cc(C)nc(Nc2ncc(C(=O)NCCc3c(C)[nH]c4ccccc34)cn2)c1
AUC(0-t) (female rat, plasma; oral, 500 mg/kg/day, day 7): 36.9 µg·h/mL

CN1[C@H]2CC[C@@H]1[C@@H](C(=O)O)[C@@H](OC(=O)c1ccccc1)C2
AUC(0-t) (LC-MS/MS; Sprague-Dawley rat, whole blood; intraperitoneal, 20 mg/kg of cocaine, up to 180 min): 5.01 ± 0.19 µg·h/mL

For quick reference, copied from above:
CC(=O)c1c([O-])cc(C)oc1=O.[Na+]
AUC(0-t) (Wistar rat, male, serum; oral, 200 mg/kg, no CYP inhibitor): 2790 ± 132 µg·h/mL
